Experimental data from different studies.
Compare with care: the assays were run in different laboratories. Numbers after ± are the reported error.

Structure (SMILES) | organism | assay | test system | conditions | EC50
CCCCCCCCC1=C(CCCCCCC(=O)OC)C1 | Toxoplasma gondii | parasite-induced cytopathic effect | Vero, RH | 24 h | 357000 ± 14100 nM
Cc1ccc(NC(=O)N2CCCN3CCC(c4ccc(C#CC5CCCC5O)cc4)C3C2)cc1 (centres unmarked) | Toxoplasma gondii |  | HFF, RH (type I) |  | 330 nM
CC(C)C[C@H](NC(=O)OCc1cccc(Cl)c1)C(=O)N[C@@H](C[C@H]1CCNC1=O)C(=O)C(=O)NC1CC1 | human rhinovirus 1B | viral replication | WI-38 | 37 °C | 160 ± 80 nM
Cc1ncnc(C)c1-c1ccc(C(=O)N2CC[C@H](C(=O)Nc3cc(F)c(F)c(F)c3)C2)[nH]1 | hepatitis B virus | viral replication, qPCR, refers to: intracellular HBV DNA | HepG2.2.15 |  | 35 nM
CCCCCCCCC1=C(CCCCCCCCC(=O)OC)C1 | Toxoplasma gondii | parasite-induced cytopathic effect | Vero, RH | 24 h | 428000 ± 15700 nM
O=C[C@H](C[C@H]1CCNC1=O)NC(=O)[C@H](CC1CCCCC1)NC(=O)OCc1ccccc1 | human rhinovirus 1B | viral replication | WI-38 | 37 °C | 650 ± 210 nM
O=c1ccn(CCCCCOc2ccc(Br)cc2)c(=O)n1Cc1c2ccccc2cc2ccccc12 | human betaherpesvirus 5 | plaque formation | HEL, Davis |  | > 4000 nM
O=C(N[C@@H](Cc1ccccc1)C(=O)N[C@@H](C[C@H]1CCNC1=O)C(=O)C(=O)NC1CC1)OCc1ccccc1 | Enterovirus D68 | viral replication | WI-38 | 37 °C | 30 ± 10 nM
CCCCOC(=O)/C=C/c1ccc(OCCNS(=O)(=O)c2ccc(C)cc2)c(OC)c1 | tobacco mosaic virus | inactivation activity, half-leaf method |  |  | 542 ± 8.9 µg/mL
CC(C)C[C@H](NC(=O)OCc1ccccc1)C(=O)N[C@H](C=O)C[C@H]1CCNC1=O | human rhinovirus 1B | viral replication | WI-38 | 37 °C | 1900 ± 1410 nM
COc1ccc(NC(=O)N2CCCN3CCC(c4ccc(C#CC5CCCCC5)cc4)C3C2)cc1 (centres unmarked) | Toxoplasma gondii |  | HFF, RH (type I) |  | 290 nM
CC(C)C[C@H](NC(=O)OCc1cccc(Cl)c1)C(=O)N[C@H](C=O)C[C@H]1CCNC1=O | Enterovirus D68 | viral replication | WI-38 | 37 °C | 430 ± 40 nM
CCCCCCCCC1=C(CCCCCCCC(=O)O)C1 | Toxoplasma gondii | parasite-induced cytopathic effect | Vero, RH | 24 h | 36200 ± 5100 nM
CC(C)C[C@H](NC(=O)OCc1ccccc1)C(=O)N[C@@H](C[C@H]1CCNC1=O)C(=O)C(=O)NC1CC1 | human rhinovirus 51 | viral replication | WI-38 | 37 °C | 70 ± 10 nM
COC(=O)/C=C/c1ccc(OCCNS(C)(=O)=O)c(OC)c1 | tobacco mosaic virus | inactivation activity, half-leaf method |  |  | 419.3 ± 3.8 µg/mL
O=c1ccn(CCCCCOc2ccc(Br)cc2)c(=O)n1Cc1ccc2ccccc2c1Br | human betaherpesvirus 5 | plaque formation | HEL, Davis |  | > 20000 nM
COC(=O)/C=C/c1ccc(OCCNS(=O)(=O)c2ccc(NC(C)=O)cc2)c(OC)c1 | tobacco mosaic virus | inactivation activity, half-leaf method |  |  | 84.8 ± 3.2 µg/mL
COc1ccc(NC(=O)N2CCCN3CCC(c4ccc(C#CC5CCCC5)cc4)C3C2)cc1 (centres unmarked) | Toxoplasma gondii |  | HFF, RH (type I) |  | 940 nM
CCOC(=O)/C=C/c1ccc(OCCNS(=O)(=O)c2ccc(F)cc2)c(OC)c1 | tobacco mosaic virus | inactivation activity, half-leaf method |  |  | 498.9 ± 4 µg/mL
COc1ccc(NC(=O)N2CCCN3CCC(c4ccc(C#Cc5ccccc5)cc4)C3C2)cc1 (centres unmarked) | Toxoplasma gondii | parasite growth, luciferase reporter | HFF, RH type I | 72 h | 270 nM
